Published values collected from several papers.
Every numbered part comes from another study and shows a few of its results, in no order.

Sample 1
Structure (SMILES): COc1cc2ncnc(Nc3ccc(OCc4ccccc4)cc3)c2cc1OC
Observed: enzyme activity
Mode: inhibitor
Concentration: 0.5 µM
Relative to: control
target | remaining activity [%]
Cyclin-dependent kinase 3, with cyclin E (CDK3, Homo sapiens, UniProt Q00526) | 96.3
MATK (Homo sapiens, UniProt P42679) | 97.5
ITK (Homo sapiens, UniProt Q08881) | 96.2
TAOK3 (Homo sapiens, UniProt Q9H2K8) | 91.7
CDC42BPA (Homo sapiens, UniProt Q5VT25) | 101
HIPK1 (Homo sapiens, UniProt Q86Z02) | 104
SRC (Homo sapiens, UniProt P12931) | 102
LIM domain kinase 1 (LIMK1, Homo sapiens, UniProt P53667) | 95.4
FER (Homo sapiens, UniProt P16591) | 90.8
NEK11 (Homo sapiens, UniProt Q8NG66) | 90.4
Insulin receptor (INSR, Homo sapiens, UniProt P06213) | 100
MARK3 (Homo sapiens, UniProt P27448) | 106
AKT1 (Homo sapiens, UniProt P31749) | 103
ALK (Homo sapiens, UniProt Q9UM73) | 103
FGR (Homo sapiens, UniProt P09769) | 72.2
PRKX (Homo sapiens, UniProt P51817) | 105
FLT4 (Homo sapiens, UniProt P35916) | 98.9
PASK (Homo sapiens, UniProt Q96RG2) | 98.6
FYN (Homo sapiens, UniProt P06241) | 86.3
NLK (Homo sapiens, UniProt Q9UBE8) | 96.5
PKN1 (Homo sapiens, UniProt Q16512) | 101
STK25 (Homo sapiens, UniProt O00506) | 93.4

Sample 2
SMILES: CN1CCN(C(=O)c2ccc(NC(=O)Nc3ccc(N(C)c4ccnc(Nc5ccc(CS(C)(=O)=O)cc5)n4)cc3)cc2)CC1
Concentration: 1 µM
target | technique | setting | relative to | remaining binding [%]
CAMK2D (Homo sapiens, UniProt Q13557) | competitive binding panel | – | vehicle | 69
MAP3K12 (Homo sapiens, UniProt Q12852) | competitive binding | DLK | – | 30
ZAP70 (Homo sapiens, UniProt P43403) | competitive binding panel | – | vehicle | 65
PIK3CD (Homo sapiens, UniProt O00329) | competitive binding panel | – | vehicle | 100
ITK (Homo sapiens, UniProt Q08881) | competitive binding panel | – | vehicle | 98
EPHA8 (Homo sapiens, UniProt P29322) | competitive binding panel | – | vehicle | 89
CDK9 (Homo sapiens, UniProt P50750) | competitive binding panel | – | vehicle | 69
MAP3K14 (Homo sapiens, UniProt Q99558) | competitive binding | NIK | – | 100
DAPK1 (Homo sapiens, UniProt P53355) | competitive binding panel | – | vehicle | 95
PIK3CA (Homo sapiens, UniProt P42336, C420R) | competitive binding panel | – | vehicle | 100
PIM1 (Homo sapiens, UniProt P11309) | competitive binding panel | – | vehicle | 100
CRK2 (Plasmodium falciparum, UniProt P61075) | competitive binding, scanMAX | Plasmodium falciparum PK5, 1000 nM | – | 95

Sample 3
SMILES: COc1ccc2c(c1)O[C@H](c1ccc(OC)c(OC)c1)C[C@@H]2NC(=O)C1(c2ccc3c(c2)OC(F)(F)O3)CC1
Observed: cell-free assay
Technique: competition with immobilised ligand
Concentration: 1 µM
target | remaining binding [%]
MAK (Homo sapiens, UniProt P20794) | 95
MUSK (Homo sapiens, UniProt O15146) | 100
HIPK3 (Homo sapiens, UniProt Q9H422) | 91
LATS1 (Homo sapiens, UniProt O95835) | 65
ERN1 (Homo sapiens, UniProt O75460) | 100
Aurora kinase B (AURKB, Homo sapiens, UniProt Q96GD4) | 98
PIK3CA (Homo sapiens, UniProt P42336) | 82
NEK3 (Homo sapiens, UniProt P51956) | 90
PIP5K1A (Homo sapiens, UniProt Q99755) | 84
CDK15 (Homo sapiens, UniProt Q96Q40) | 100
Tyrosine-protein kinase ABL1, non-phosphorylated (ABL1, Homo sapiens, UniProt P00519) | 100
ACVR1B (Homo sapiens, UniProt P36896) | 82
ROCK1 (Homo sapiens, UniProt Q13464) | 84
Macrophage colony-stimulating factor 1 receptor, autoinhibited (CSF1R, Homo sapiens, UniProt P07333) | 100
EGFR (Homo sapiens, UniProt P00533, del747-750/T751S) | 100

Sample 4
SMILES: C=CC(=O)N1CCC[C@@H](n2nc(-c3ccc(Oc4ccccc4)cc3)c3c(N)ncnc32)C1
Mode: inhibitor
Concentration: 1 µM
target | observed | inhibition
EPHB2 (Homo sapiens, UniProt P29323) | enzyme activity | 12%
EPHA8 (Homo sapiens, UniProt P29322) | – | 30%
SIK2 (Homo sapiens, UniProt Q9H0K1) | enzyme activity | 0%
Tyrosine-protein kinase JAK1, JH1 kinase domain (JAK1, Homo sapiens, UniProt P23458) | – | 2%
MAP4K3 (Homo sapiens, UniProt Q8IVH8) | enzyme activity | 5%
EPHB6 (Homo sapiens, UniProt O15197) | enzyme activity | 87%
DAPK2 (Homo sapiens, UniProt Q9UIK4) | enzyme activity | 2%
BMPR1B (Homo sapiens, UniProt O00238) | enzyme activity | 7%
EGFR (Homo sapiens, UniProt P00533, L858R/T790M) | – | 94%
STK36 (Homo sapiens, UniProt Q9NRP7) | enzyme activity | 37%
FGFR2 (Homo sapiens, UniProt P21802) | – | 57%
FGFR3 (Homo sapiens, UniProt P22607) | – | 59%
PIP5K1C (Homo sapiens, UniProt O60331) | – | 0%
KIT (Homo sapiens, UniProt P10721, A829P) | – | 41%
TEC (Homo sapiens, UniProt P42680) | enzyme activity | 76%
Tyrosine-protein kinase ABL1, phosphorylated (ABL1, Homo sapiens, UniProt P00519, E255K) | – | 34%
MELK (Homo sapiens, UniProt Q14680) | – | 33%
STK39 (Homo sapiens, UniProt Q9UEW8) | enzyme activity | 1%
